Experimental data collected from several papers.
Each line is one published result; not all experiments were run side by side. ± gives the spread as reported.

Cn1cc(-c2ccc(-c3cncc(Cl)c3N3CCC4(CCNC4=O)CC3)cc2)cn1
log2 fold change (COLO 205; gene expression, microarray, measured: PRKCDBP mRNA; concentration not given, 2 h; relative to: untreated cells): -3.1

O=C(/C=C/C=C/C=C/C1CCCCC1)NC1=C[C@@](O)(/C=C/C=C/C=C/C(=O)NC2=C(O)CCC2=O)[C@@H]2O[C@@H]2C1=O
GI50 (KYSE-150; cell growth, CellTiter-Glo; 78 h): 8870 nM

COc1ccc(C=CC(=O)NC(=O)c2ccccc2OC(=O)c2ccccc2)cc1OC
IC50 (Plasmodium yoelii; 17XL; 384-well): 585 ± 147 nM

c1coc(-c2n[nH]cc2-c2ccnc3ccccc23)c1
log2 fold change (CMK2 (Candida albicans); kinase binding, MIB/MS competition; Candida albicans lysate; 1 µM; relative to: DMSO): 0.3

CN1CCCC(CN2CCN(Cc3ccc(-c4cccc(-c5nc6ccccc6[nH]5)c4)cc3)CC2)C1 (stereo not drawn)
IC50 (Plasmodium yoelii; 17XL; 384-well): > 20000 nM

O=C(CCCCCCC(=O)Nc1cccnc1)NO
viability (HBL-1; 1 µM, 120 h): 36.1%

Cc1cc(C)c2cc(CNCCCNc3nc4ccccc4[nH]3)[nH]c2c1
IC50 (Plasmodium yoelii; 17XL; 384-well): > 20000 nM

Oc1ccccc1-c1n[nH]cc1-c1ccnc2ccccc12
log2 fold change (GCN2 (Candida albicans); kinase binding, MIB/MS competition; Candida albicans lysate; 10 µM; relative to: DMSO): -0.25

O=c1ncccn1[C@@H]1O[C@H](CO)[C@@H](O)[C@H]1O
viability (HBL-1; 0.1 µM, 120 h): 122%

OC(CCN1CCCCC1)(c1ccccc1)C1CC2C=CC1C2 (stereo not drawn)
EEG power, beta, Pz-O1 (resting-state EEG; healthy elderly humans; oral, 2 mg, eyes open, LS mean): 7.1 µV²

CC(C(=O)Nc1cccc(/N=C/c2c(O)ccc3ccccc23)c1)c1ccccc1 (stereo not drawn)
viability (HBL-1; 0.1 µM, 120 h): 108%

Cc1[nH]c(C)c(-c2ccc(OCc3ccc(OC(F)(F)F)cc3)nc2)c(=O)c1Br
IC50 (Plasmodium yoelii; 17XL; 384-well): 174 ± 43 nM

c1ccc2c(Cc3c[nH]c4ccccc34)c[nH]c2c1
viability (HBL-1; 1 µM, 120 h): 106%

CC(C)NCC(O)c1ccc(O)c(O)c1 (stereo not drawn)
sarcomere length (ventricular cardiomyocytes, C57BL/6 mouse; dose not given, 0.032 s): 1.72 µm

COc1ccc(CCc2ccc(-c3c(C)[nH]c(C)c(Cl)c3=O)cc2)cc1
IC50 (Plasmodium yoelii; 17XL; 384-well): 149 ± 49 nM

CC1=CC(=O)CC(C)(C)[C@@]1(O)/C=C/C(C)=C\C(=O)O
viability (HBL-1; 0.1 µM, 120 h): 53.7%

COc1c(C)[nH]c(C)c(-c2ccc(Oc3cccc(C(F)(F)F)c3)cc2)c1=O
IC50 (Plasmodium yoelii; 17XL; 384-well): 595 ± 163 nM

CC(=O)Nc1ccc(NC(=S)NC(=O)c2ccc(C(C)(C)C)cc2)cc1
viability (HBL-1; 1 µM, 120 h): 70.9%

O=C(O)CNC(=O)Cc1ccccc1
sarcomere length (ventricular cardiomyocytes, C57BL/6 mouse; dose not given, 0.772 s): 1.72 µm

Cc1[nH]c(C)c(-c2ccc(OCc3ccc(F)cc3)cc2)c(=O)c1Cl
IC50 (Plasmodium yoelii; 17XL; 384-well): 1690 ± 746 nM

COc1ccc(Cn2ccc3ccc(C(=O)NO)cc32)cc1
viability (HBL-1; 0.1 µM, 120 h): 120%

For quick reference, copied from above:
COc1ccc(CCc2ccc(-c3c(C)[nH]c(C)c(Cl)c3=O)cc2)cc1
IC50 (Plasmodium yoelii; 17XL; 384-well): 149 ± 49 nM
